Measurements gathered from unrelated publications.
Organism: Escherichia coli

Structure (SMILES)	test	test system	conditions	MIC
COc1cc(/C=C/C(=O)NCCCCCC(=O)N[C@@H](CCCNC(=N)N)C(=O)N[C@@H](CC(C)C)C(=O)N[C@@H](CC(C)C)C(=O)N[C@@H](CCCNC(=N)N)C(=O)N[C@@H](CCCNC(=N)N)C(=O)N[C@@H](CC(C)C)C(=O)N[C@@H](CC(C)C)C(=O)N[C@@H](CCCNC(=N)N)C(N)=O)ccc1O	broth microdilution	ATCC 25922	24 h, 37 °C	36 µM
CC1C(=NNC(=O)c2ccncc2)C(C)C(c2ccc(Cl)cc2)OC1c1ccc(Cl)cc1 (centres unmarked)	microbial growth, broth dilution	MTCC443	24 h	12.5 µg/mL
CCCO[C@H]1[C@H](O)[C@@H](N)[C@@H](O[C@H]2[C@H](O[C@@H]3O[C@H](CO)[C@@H](O[C@H]4O[C@@H](CN)[C@@H](O)[C@H](O)[C@H]4N)[C@H]3O)[C@@H](O)[C@H](N)C[C@@H]2N)O[C@@H]1CO	broth microdilution	clinical isolate AG 002		16 to 32 µg/mL
CC[C@H](C)[C@H](NC(=O)[C@@H](Cc1ccccc1)NC)C(=O)N[C@@H](CO)C(=O)N[C@H](CCCNC(=N)N)C(=O)N[C@@H](C(=O)N[C@H](C(=O)OC[C@H](N)C(=O)N[C@H]1C(=O)N[C@@H](C)C(=O)N[C@@H](CC(C)C)C(=O)N[C@@H]([C@@H](C)CC)C(=O)O[C@H]1C)[C@@H](C)CC)[C@@H](C)CC	broth microdilution	ATCC 10798, Mueller-Hinton broth	16 h, 37 °C	> 8 µg/mL
NCCCC[C@@H]1NC(=O)[C@@H](CCCCN)NC(=O)[C@H](CCCCN)NC(=O)[C@@H](CCCCN)NC(=O)[C@H](Cc2c[nH]c3ccccc23)NC(=O)[C@@H](Cc2c[nH]c3ccccc23)NC(=O)[C@@H](N)CSCc2ccc(cc2)CSC[C@@H](C(N)=O)NC(=O)[C@@H](Cc2c[nH]c3ccccc23)NC(=O)[C@H](Cc2c[nH]c3ccccc23)NC(=O)[C@@H](CCCCN)NC1=O		W3110		32 µg/mL
CC[C@H](C)[C@H](NC(=O)[C@H](CCCCN)NC(=O)[C@@H]1CCCN1C(=O)[C@@H](NC(=O)[C@H](CC(C)C)NC(=O)[C@H](CCCCN)NC(=O)[C@H](CC(C)C)NC(=O)[C@@H](NC(=O)[C@H](CO)NC(=O)CNC(=O)[C@H](Cc1ccccc1)NC(=O)[C@@H](N)Cc1ccccc1)C(C)C)[C@@H](C)CC)C(=O)N[C@@H](CC(C)C)C(N)=O	broth microdilution	K12		25 µM
Cc1ccc2nc(C(F)(F)F)c(C(=O)NCc3cccc(Cl)c3)n2c1	broth microdilution	3		> 64 µM
Cc1cc(N)c2cc(NC(=O)c3ccc4cc(C(=O)N5CCN(C)CC5)ccc4c3)ccc2n1		hyperporinated ΔtolC		200 µM
C[C@@](O)(C(F)F)[C@H](NC(=O)c1ccc(C#CC#CC2CC2)cc1)C(=O)NO	broth microdilution	W3110, CAMHB with 50% mouse plasma		0.125 µg/mL
CCCCCCCCCCCCCC(=O)N[C@H](CCN)C(=O)N[C@@H]1C(=O)N[C@@H](CCN)C(=O)N[C@@H](CC(C)C)C(=O)N[C@@H](CCN)C(=O)N[C@H](Cc2ccccc2)C(=O)N[C@@H](CC(C)C)C(=O)N[C@@H](CCN)C(=O)N[C@H](CCN)C(=O)N[C@@H](C(C)C)C(=O)N[C@@H](CC(=O)O)C(=O)O[C@@H]1C	broth microdilution	MG1655-mcr-1, colistin-resistant		2 µg/mL
N=C(N)NCCC[C@H](NC(=O)[C@H](Cc1c[nH]c2ccccc12)NC(=O)[C@H](CCC(N)=O)NC(=O)[C@H](Cc1c[nH]c2ccccc12)NC(=O)[C@H](CCCNC(=N)N)NC(=O)[C@H](Cc1c[nH]c2ccccc12)NC(=O)[C@H](CCC(N)=O)NC(=O)[C@H](Cc1c[nH]c2ccccc12)NC(=O)[C@@H](N)CCCNC(=N)N)C(=O)NCCCC[C@H](NC(=O)[C@H](CCCNC(=N)N)NC(=O)[C@H](Cc1c[nH]c2ccccc12)NC(=O)[C@H](CCC(N)=O)NC(=O)[C@H](Cc1c[nH]c2ccccc12)NC(=O)[C@H](CCCNC(=N)N)NC(=O)[C@H](Cc1c[nH]c2ccccc12)NC(=O)[C@H](CCC(N)=O)NC(=O)[C@H](Cc1c[nH]c2ccccc12)NC(=O)[C@@H](N)CCCNC(=N)N)C(=O)NCCCCCC(N)=O	broth microdilution	ATCC 11775	24 h, 37 °C	31 µM
N=C(N)NCCC[C@@H]1NC(=O)[C@H](CCCNC(=N)N)NC(=O)[C@H](CCCNC(=N)N)NC(=O)[C@H](CCCNC(=N)N)NC(=O)[C@H](Cc2c[nH]c3ccccc23)NC(=O)[C@H](CCCNC(=N)N)NC(=O)[C@H](CCCNC(=N)N)NC(=O)[C@@H](N)CCCn2cc(nn2)C[C@@H](C(N)=O)NC1=O		ATCC 25922	24 h, 37 °C	250 µg/mL
CC[C@H](C)[C@H](NC(=O)[C@H](CCCNC(=N)N)NC(=O)[C@@H](N)CCCNC(=N)N)C(=O)N[C@@H](CCCNC(=N)N)C(=O)N1CCC[C@H]1C(=O)N[C@@H](CCCNC(=N)N)C(=O)N1CCC[C@H]1C(=O)N1CCC[C@H]1C(=O)N[C@@H](CCCNC(=N)N)C(=O)N[C@@H](CC(C)C)C(=O)N1CCC[C@H]1C(=O)N[C@@H](CCCNC(=N)N)C(=O)N1CCC[C@H]1C(=O)N[C@@H](CCCNC(=N)N)C(=O)N1CCC[C@H]1C(=O)N[C@@H](CCCNC(=N)N)C(=O)N1CCC[C@H]1C(=O)N[C@@H](CC(C)C)C(=O)N1CCC[C@H]1C(=O)N[C@@H](Cc1ccccc1)C(=O)N1CCC[C@H]1C(=O)N[C@@H](CCCNC(=N)N)C(=O)N1CCC[C@H]1C(=O)NCC(=O)N1CCC[C@H]1C(=O)N[C@@H](CCCNC(=N)N)C(=O)N1CCC[C@H]1C(=O)N[C@H](C(=O)N1CCC[C@H]1C(=O)N[C@@H](CCCNC(=N)N)C(=O)N1CCC[C@H]1C(=O)N[C@@H](CC(C)C)C(=O)N1CCC[C@H]1C(=O)N[C@@H](Cc1ccccc1)C(=O)N1CCC[C@H]1C(=O)O)[C@@H](C)CC	broth microdilution	BW25113 wild type, Mueller-Hinton broth	overnight, 37 °C	2.8 µM
Cc1cc(N)c2cc(NC(=O)c3ccc4c(-c5cccc(O)c5)cccc4c3)ccc2n1		ΔtolC efflux-deficient		> 200 µM
CC[C@H](C)[C@H](NC(=O)[C@H](CCCN)NC(=O)[C@H](CC(N)=O)NC(=O)[C@H](Cc1c[nH]c2ccccc12)NC(=O)[C@H](Cc1ccccc1)NC(=O)[C@H](CCCN)NC(=O)[C@H](CCCCNC(=N)N)NC(=O)[C@H](CC(C)C)NC(=O)[C@H](Cc1c[nH]c2ccccc12)NC(=O)[C@H](CCCN)NC(=O)[C@H](CCCCNC(=N)N)NC(=O)[C@H](CC(C)C)NC(=O)CNC(C)=O)C(=O)N[C@@H](CCCN)C(=O)N[C@@H](CCCCNC(=N)N)C(N)=O	broth microdilution	ATCC 25922		3.12 µM
CCCCCCCCCCCCCCCCCCCCCCSCC1OC(OC2C(N)CC(N)C(OC3OC(CN)C(O)CC3N)C2O)C(O)C(N)C1O (centres unmarked)		BL21(DE3) AAC(6')/APH(2'')		> 150 µg/mL
NCCCC[C@H](NC(=O)[C@H](CCCCN)NC(=O)[C@H](Cc1ccccc1)NC(=O)[C@@H]1CCCN1C(=O)[C@H](Cc1c[nH]c2ccccc12)NC(=O)[C@H](Cc1c[nH]c2ccccc12)NC(=O)[C@H](Cc1c[nH]c2ccccc12)NC(=O)[C@@H]1CCCN1C(=O)[C@H](Cc1ccccc1)NC(=O)[C@H](CCCCN)NC(=O)[C@@H](N)CCCCN)C(N)=O		ATCC 8937, RPMI medium	24 h, 37 °C	15 µM
CCCCCCCCCCCCCCCC(=O)N[C@@H](CCCCN)C(=O)N[C@@H](CCCCN)C(=O)N[C@@H](CCCNC(=N)N)C(=O)N[C@@H](CCCCN)C(N)=O	broth microdilution	K12, water pH 7	18 h, 37 °C	16 µg/mL
CC[C@@H](C)[C@H](NC(=O)[C@H](C)NC(=O)[C@H](CCCCN)NC(=O)[C@H](CC(C)C)NC(=O)[C@H](C)NC(=O)[C@@H](NC(=O)[C@H](Cc1c[nH]cn1)NC(=O)[C@H](CC(C)C)NC(=O)[C@@H](NC(=O)[C@@H](NC(=O)[C@H](CCCCN)NC(=O)[C@H](CCCCN)NC(=O)[C@H](C)NC(=O)[C@H](CO)NC(=O)[C@H](CCCCN)NC(=O)[C@H](Cc1ccccc1)NC(=O)[C@@H](NC(=O)[C@H](CCCCN)NC(=O)[C@H](CC(C)C)NC(=O)[C@H](Cc1ccccc1)NC(=O)[C@H](CO)NC(=O)[C@H](CCCCN)NC(=O)[C@H](Cc1c[nH]c2ccccc12)NC(=O)[C@H](CCCCN)NC(C)=O)[C@@H](C)O)[C@@H](C)O)C(C)C)[C@@H](C)O)C(=O)N[C@@H](CO)C(=O)N[C@@H](CO)C(N)=O	broth dilution	ATCC 25922, Mueller-Hinton broth	24 h, 37 °C	8 µg/mL
CCCCCCCCCCCC[S+]([O-])CC1OC(OC2C(N)CC(N)C(OC3OC(CN)C(O)CC3N)C2O)C(O)C(N)C1O (mixture of isomers)		BL21(DE3) AAC(3)-IV		> 150 µg/mL
CC(C)C[C@@H]1NC(=O)[C@@H](CC(C)C)NC(=O)[C@H](CCN)NC(=O)[C@@H](NC(=O)[C@H](CCN)NC(=O)[C@@H](N)[C@@H](C)O)CCNC(=O)[C@H]([C@@H](C)O)NC(=O)[C@H](CCN)NC(=O)[C@H](CCN)NC1=O	broth microdilution	mcr-1, colistin-resistant, CAMHB with 0.002% polysorbate-80	16 h, 37 °C	> 64 µg/mL
CCCCCCCCCCCCCCCCCCSCC1OC(OC2C(N)CC(N)C(OC3OC(CN)C(O)CC3N)C2O)C(O)C(N)C1O (centres unmarked)		BL21(DE3) AAC(3)-IV		> 150 µg/mL
C/C(=N/NC(=N)N)c1nnn(-c2ccc(C#CC(C)(C)O)cc2)c1C	broth microdilution	JW55031 tolC mutant		64 µg/mL
CCCCCCCCCCCC(=O)N[C@@H](CCCCN)C(=O)N[C@@H](CCCCN)C(=O)N[C@@H](CCCCN)C(=O)N[C@@H](CCCCN)C(=O)N[C@@H](CCCCN)C(N)=O	broth microdilution	K12	16-24 h, 37 °C, prepared at pH 7	≥ 32 µg/mL
CC[C@H](C)[C@H](N)C1=N[C@H](C(=O)N[C@@H](CC(C)C)C(=O)N[C@H](CCC(=O)O)C(=O)N[C@H](C(=O)N[C@H]2CCCCNC(=O)[C@H](CC(N)=O)NC(=O)[C@@H](CC(=O)O)NC(=O)[C@H](Cc3c[nH]cn3)NC(=O)[C@@H](Cc3ccc(-c4ccccc4)cc3)NC(=O)[C@H]([C@@H](C)CC)NC(=O)[C@@H](CCCN)NC2=O)[C@@H](C)CC)CS1	broth microdilution	ATCC 25922, LB medium	18 h, 37 °C, with: ZnSO4 0.3 mM	> 64 µg/mL
CC[C@H](C)[C@H](NC(=O)[C@H](CO)NC(=O)[C@H](CO)NC(=O)[C@H](Cc1ccccc1)NC(=O)CN)C(=O)N[C@@H](Cc1ccccc1)C(=O)N[C@@H](CCCNC(=N)N)C(=O)NCC(=O)N[C@H](C(=O)N[C@@H](C)C(=O)N[C@@H](CCCCN)C(=O)N[C@@H](Cc1ccccc1)C(=O)N[C@@H](C)C(=O)N[C@@H](CO)C(=O)N[C@@H](CCCCN)C(=O)NCC(=O)N[C@@H](CC(C)C)C(=O)NCC(=O)N[C@@H](CCCCN)C(N)=O)C(C)C		ATCC 8739	pretreated trypsin 0.5 mg/mL	> 128 µM

Some of these lines once more:
Structure (SMILES)	test	test system	conditions	MIC
CCCCCCCCCCCCCCCC(=O)N[C@@H](CCCCN)C(=O)N[C@@H](CCCCN)C(=O)N[C@@H](CCCNC(=N)N)C(=O)N[C@@H](CCCCN)C(N)=O	broth microdilution	K12, water pH 7	18 h, 37 °C	16 µg/mL
CC[C@@H](C)[C@H](NC(=O)[C@H](C)NC(=O)[C@H](CCCCN)NC(=O)[C@H](CC(C)C)NC(=O)[C@H](C)NC(=O)[C@@H](NC(=O)[C@H](Cc1c[nH]cn1)NC(=O)[C@H](CC(C)C)NC(=O)[C@@H](NC(=O)[C@@H](NC(=O)[C@H](CCCCN)NC(=O)[C@H](CCCCN)NC(=O)[C@H](C)NC(=O)[C@H](CO)NC(=O)[C@H](CCCCN)NC(=O)[C@H](Cc1ccccc1)NC(=O)[C@@H](NC(=O)[C@H](CCCCN)NC(=O)[C@H](CC(C)C)NC(=O)[C@H](Cc1ccccc1)NC(=O)[C@H](CO)NC(=O)[C@H](CCCCN)NC(=O)[C@H](Cc1c[nH]c2ccccc12)NC(=O)[C@H](CCCCN)NC(C)=O)[C@@H](C)O)[C@@H](C)O)C(C)C)[C@@H](C)O)C(=O)N[C@@H](CO)C(=O)N[C@@H](CO)C(N)=O	broth dilution	ATCC 25922, Mueller-Hinton broth	24 h, 37 °C	8 µg/mL
